# Measurements of several laboratories.
# Numbered parts are unrelated; each lists some results of a single study. Positions count from the first letter of the parent shown.

# Sample 1 — method: aptamer microarray, sandwich; form: DNA with 2'F-ANA; medium: in vitro; concentration: 200 nM; added: Cy3 exosite-II aptamer, 400 nM; reading: higher = stronger binding; oligonucleotide: GGTTGGTGTGGTTGG
# Target: Prothrombin, mature alpha-thrombin (F2, Homo sapiens, UniProt P00734)
# Notes: whole 15-mer aptamer, many near background
Modification,mean fluorescence intensity [a.u.]
2'F-ANA at 2 4 5 6 7 8 9 14 15,48.2
2'F-ANA at 3 5 8 13 14,58.9
2'F-ANA at 1 3 5 7 9 10 11 12 13 14 15,46.9
2'F-ANA at 5 6 10 12 15,49.3
2'F-ANA at 2 3 7 8 9 10 11 12 13 14 15,238
2'F-ANA at 2 4 9 11,264
2'F-ANA at 1 2 3 4 6 8 9 10,62.8
2'F-ANA at 1 3 4 5 6 9 10 14 15,46.6
2'F-ANA at 1 2 6 10 12 13 14 15,48.5
2'F-ANA at 1 2 8 9 12,391
2'F-ANA at 3 12 14,791
2'F-ANA at 7 8 9 12,923
2'F-ANA at 1 4 7 10 14,66.3
2'F-ANA at 2 7 8 11 13 15,387
2'F-ANA at 1 2 3 4 5 6 10 12 13 14,45.4
2'F-ANA at 1 2 5 8 10 11 15,52.4
2'F-ANA at 1 2 3 5 9 11 13 14,43.9
2'F-ANA at 4 9 10 13 15,67.8
2'F-ANA at 1 2 7 8 10 12 14 15,91.6
2'F-ANA at 3 4 6 7 9 10 11 14,171
2'F-ANA at 6 7 8 10 11 12 13,173

# Sample 2 — method: universal PBM; form: double-stranded DNA, one strand shown; medium: in vitro; concentration: 600 nM; reading: higher = stronger binding
# Target: Sal-like protein 4, full length isoform A (SALL4, Homo sapiens, UniProt Q9UJQ4, residues 1-1053)
# UniProt Q9UJQ4, sequence (whole entry, looked up): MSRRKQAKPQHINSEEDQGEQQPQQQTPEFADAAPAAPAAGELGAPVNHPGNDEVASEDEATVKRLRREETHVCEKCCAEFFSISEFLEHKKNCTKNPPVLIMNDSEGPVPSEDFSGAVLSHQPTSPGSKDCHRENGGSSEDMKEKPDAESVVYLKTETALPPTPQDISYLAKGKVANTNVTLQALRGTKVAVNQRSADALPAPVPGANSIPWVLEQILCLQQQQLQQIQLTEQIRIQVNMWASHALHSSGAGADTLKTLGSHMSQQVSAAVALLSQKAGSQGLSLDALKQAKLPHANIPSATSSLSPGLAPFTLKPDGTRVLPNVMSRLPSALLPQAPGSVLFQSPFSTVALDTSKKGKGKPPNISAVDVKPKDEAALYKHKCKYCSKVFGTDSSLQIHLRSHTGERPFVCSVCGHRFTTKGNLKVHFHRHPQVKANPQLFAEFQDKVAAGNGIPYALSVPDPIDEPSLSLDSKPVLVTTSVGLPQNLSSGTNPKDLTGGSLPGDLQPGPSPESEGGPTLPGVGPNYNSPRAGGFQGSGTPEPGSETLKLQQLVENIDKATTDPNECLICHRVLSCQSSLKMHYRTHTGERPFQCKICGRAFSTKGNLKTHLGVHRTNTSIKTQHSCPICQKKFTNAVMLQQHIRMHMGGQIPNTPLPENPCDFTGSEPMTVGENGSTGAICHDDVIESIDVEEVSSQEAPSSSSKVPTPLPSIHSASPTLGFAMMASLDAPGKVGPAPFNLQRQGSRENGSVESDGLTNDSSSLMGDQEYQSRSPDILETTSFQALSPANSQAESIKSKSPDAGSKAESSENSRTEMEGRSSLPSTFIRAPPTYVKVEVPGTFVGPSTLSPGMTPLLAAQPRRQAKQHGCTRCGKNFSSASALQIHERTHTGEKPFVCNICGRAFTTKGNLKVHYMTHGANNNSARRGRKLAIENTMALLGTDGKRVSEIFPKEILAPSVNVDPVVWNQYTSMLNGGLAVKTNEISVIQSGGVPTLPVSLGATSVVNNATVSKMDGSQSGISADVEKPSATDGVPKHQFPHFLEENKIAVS
# Notes: 8-mer, flanks averaged, mean of replicates
Oligonucleotide,E-score
AACCTGAC,-0.0141
AGTCCCTA,0.0525
CTACGTAG,-0.0213
GCAGAATA,0.145
CGGTTTCA,-0.0416
CTTGAGAC,-0.0692
AGAGTCCC,-0.18
CACGGCTC,-0.15
GCACGGCC,-0.336
ATCATCTG,0.00169
CATCTAGC,0.037
AGCTCGAC,-0.156
CACTCTAG,-0.0655
ATGTTCTC,0.1
ACATCTCC,0.0354
ACGCCTCC,-0.216
AGAGCCTC,-0.251
CTTGATGC,-0.101
GATGTCCA,-0.00971
AATAACGG,0.321
GATAGTAC,-0.023
TGACATAA,0.315
CCACAACC,-0.0258
CAAGTTCG,-0.185
CGCTAAAC,-0.104

# Sample 3 — method: RNAcompete; form: RNA; medium: in vitro; concentration: 20 nM; notes: 7-mer, probes averaged, single round; relative to: mean of 7-mers; reading: higher = stronger binding
# Target: PABPC1L2, full length, GST fusion (mouse, UniProt A0ABA7IW68)
Oligonucleotide,7-mer Z-score
AAUAACU,0.218
CGCAAGA,-0.0391
CCGUUCC,-0.36
UAGUAAA,0.466
GCGAAAA,5.09
ACUCAAG,-0.132
UCGGCCC,-0.208
GCGGUUA,0.151
GUCGCAU,-0.335
CAAUAGG,0.0334
AAGCGCA,0.258
AGUGCUU,-0.202
GUCCCAC,-0.171
ACUCCUA,-0.188
AAAUCAU,0.909
GUCCGCU,-0.345
GUCUUAU,-0.4
CUGCUCA,-0.338
CGUGCAC,-0.322
AGAUGUG,-0.121
GGUGUCU,-0.112
UAAGGUA,0.0315
UUCUCAU,-0.525
AGUAUAA,0.332
GAAGGCG,0.182

# Sample 4 — method: DHFR PCA, deep sequencing; medium: yeast; added: (+)-ABA 0.39 µM; relative to: wild-type fitted maximum; reading: higher = stronger binding
# Target: ABI1, truncated, D143A, DHFR fusion (Arabidopsis thaliana)
# Notes: methotrexate growth selection, single substitutions
# Starting sequence: PYL1, truncated, DHFR fusion (Arabidopsis thaliana); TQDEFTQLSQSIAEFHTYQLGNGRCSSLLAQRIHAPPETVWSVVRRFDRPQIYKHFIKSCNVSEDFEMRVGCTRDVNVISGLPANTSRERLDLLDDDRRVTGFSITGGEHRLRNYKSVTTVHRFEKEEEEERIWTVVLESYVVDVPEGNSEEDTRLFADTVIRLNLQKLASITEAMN; partner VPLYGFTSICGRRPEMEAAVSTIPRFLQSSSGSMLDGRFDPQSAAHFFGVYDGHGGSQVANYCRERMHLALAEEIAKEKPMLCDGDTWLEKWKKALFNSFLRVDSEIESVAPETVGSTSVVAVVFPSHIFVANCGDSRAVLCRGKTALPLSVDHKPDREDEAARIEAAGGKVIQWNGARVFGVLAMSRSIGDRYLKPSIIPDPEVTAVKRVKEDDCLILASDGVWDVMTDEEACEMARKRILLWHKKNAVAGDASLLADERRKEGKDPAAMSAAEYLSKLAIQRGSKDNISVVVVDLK
Variant,relative binding score [%]
E128A,50
T17R,5.99
E151C,32.8
D65L,-2.24
T6G,46.8
V143L,-14.5
T1D,44.2
F103P,-18.4
D95H,-12.1
A158S,-11.6
S27N,54.1
R49Y,-7.84
L112E,2.09
F5E,17.3
L8N,-9.84
S63M,16.7
Q7A,51.3
D96L,-7.13

# Sample 5 — target: CCNE1, cyclin fold, Cln2 fusion (human); method: yeast growth competition, sequencing; medium: yeast; notes: strong parent motif; relative to: not given; reading: higher = stronger binding
# Starting sequence: PKMYT1 docking peptide (human); SFEPRNLLSLFED; partner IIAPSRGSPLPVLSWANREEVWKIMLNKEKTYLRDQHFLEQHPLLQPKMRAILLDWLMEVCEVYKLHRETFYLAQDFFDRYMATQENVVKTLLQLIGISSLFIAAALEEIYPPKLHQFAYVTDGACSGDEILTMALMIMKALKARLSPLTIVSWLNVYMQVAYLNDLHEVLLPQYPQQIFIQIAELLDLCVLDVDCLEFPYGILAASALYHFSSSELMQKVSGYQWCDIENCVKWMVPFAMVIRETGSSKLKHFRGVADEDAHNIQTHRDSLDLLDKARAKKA
Variant,normalised enrichment score
KFEPRNLLSLFED [S1K],0.676
SFERRNLLSLFED [P4R],1.08
SFEPRNLLSDFED [L10D],1.79
SFEPRNLLCLFED [S9C],1.62
SFEPRNLLSLRED [F11R],-0.84
SFEPRNLLSLFEM [D13M],2.14
SFEPRNLLELFED [S9E],1.97
SFEPRNLLSHFED [L10H],1.26
SFEPRHLLSLFED [N6H],0.823
GFEPRNLLSLFED [S1G],2.2
SFFPRNLLSLFED [E3F],1.4
SFEPRALLSLFED [N6A],1.15
SFCPRNLLSLFED [E3C],2.41
SFEPRNLLWLFED [S9W],1.93
LFEPRNLLSLFED [S1L],1.67
SFEPFNLLSLFED [R5F],0.433
SFEPMNLLSLFED [R5M],1.48
SFEPRNLLSLFES [D13S],1.93
SMEPRNLLSLFED [F2M],0.791
SHEPRNLLSLFED [F2H],0.0352
SFEPRNLLALFED [S9A],1.94
SFEPVNLLSLFED [R5V],1.54
SFEPRNLLSLFEY [D13Y],2.19
SFEPRNMLSLFED [L7M],0.354
SFWPRNLLSLFED [E3W],1.24

# Sample 6 — target: ATF7, bZIP domain (human); method: DHFR protein complementation; medium: yeast; relative to: wild-type JUN-FOS pair; reading: higher = stronger binding
# Notes: single substitutions, most at no-binding floor
# Starting sequence: JUN, bZIP domain (human); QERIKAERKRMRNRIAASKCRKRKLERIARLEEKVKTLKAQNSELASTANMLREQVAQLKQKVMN; partner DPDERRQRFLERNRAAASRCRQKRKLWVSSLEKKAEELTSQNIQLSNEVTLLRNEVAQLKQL
Variant,binding fitness [natural log]
S47K,-0.597
M51Q,-0.868
A49C,-1.16
N42T,-1.42
L38C,-1.32
I28W,-0.853
T37V,-0.864
I28Y,-1.06
S47G,-1.08
Q41V,-1.03
S43E,-0.634
A57M,-1.04
E44W,-1.23
M51W,-1.1
Q41N,-1.25
E32G,-1.34
N42W,-1.45
A46G,-1.35
A57K,-0.886
